# Measured values of several laboratories.
# Every numbered part comes from another study and shows a few of its results, in no order. Substitutions count along the parent as printed.

# Sample 1 — technique: protein binding microarray; molecule type: double-stranded DNA, one strand shown; matrix: in vitro; tested at: not given; reference: not given; direction: higher = stronger binding
# Target: Histone acetyltransferase KAT6A, both winged helices, GST fusion (KAT6A, Homo sapiens, UniProt Q92794, residues 1-181)
# Notes: 8-mer, flanks averaged, mean of 2 arrays, mostly near background
# Target sequence (chain): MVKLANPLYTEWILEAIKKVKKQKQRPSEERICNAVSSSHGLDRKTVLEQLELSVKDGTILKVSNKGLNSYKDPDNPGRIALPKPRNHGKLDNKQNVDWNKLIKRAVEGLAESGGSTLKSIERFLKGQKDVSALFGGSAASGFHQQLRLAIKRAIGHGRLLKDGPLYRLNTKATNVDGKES
Oligonucleotide,E-score
AGGAGATA,-0.145
GCAAGATA,0.0291
CGTGACAG,0.0419
CACATTAC,0.0851
ATACCGAT,0.0381
ACCTCCCC,-0.13
GGCTCCAC,-0.105
GGAGAGCA,-0.16
CGGCGACG,0.317
ACGACCGA,-0.0562
ATTGAGGC,-0.11
AGAATTCC,-0.0566
CAGCCAAG,-0.212
AAGCGTAG,0.0471
AGGAGTGA,-0.19
CCCAATAG,-0.277
GTTCGGAA,0.0126
AGACCCTA,-0.173
ACTTTATG,-0.245
CAGTTCCA,-0.104
AGATGCTC,-0.0781
AAACAGAC,0.0303
ACCGTAAC,0.2
CCCAGAAA,-0.201
AGCTAAGC,-0.11

# Sample 2 — technique: RNA Bind-n-Seq; molecule type: RNA; matrix: in vitro; tested at: 200 nM; notes: whole 134-nt RNA, ends assumed; added: 150 mM KCl; reference: input library; direction: higher = stronger binding
# Target: Fragile X messenger ribonucleoprotein 1, C-terminal low-complexity region (Fmr1, Mus musculus, UniProt P35922)
# All sequences stand within: GGGAGUUCUACAGUCCGACGAUC … UGGAAUUCUCGGGUGUCAAGG
Oligonucleotide,log2 enrichment
UAACUUUAGAGGAGGAUCUGAUGGAUAUGGCAGUGGACGUGGAUUUGGGGAUGGCUAUUAUGGGUAUGGAGGAGGACCUGGAGGUGGCAA,0.336
CCUGUGCUACACAUCGUAUGUACCGAAUCGGGGUUUUUGGGGAAAGGGGAAAAAAAGGGGAAAGUAUUAUGUUACGCCGUUCGGAUCUGC,0.287
GCAGGAAGUAAAAACAAAUGGAUAUGCUUCGGAUAGUGGCAGGGGUGGGGGUUGCUAAGGAAAGGGUGGGAUGGGAGUGGGUAAAGAGUU,-0.00265
GCAGGAAGUAAAAACAAAUGGAAAUGCUUCGGAUAGUGGCAGGGGUGGGGGUUGCUAAGGAAAGGGUGGGCUGGGAGUGGGUAAAGAGUU,0.146
CUCAAGUCCUGUGCUACACAUCGUAUGUACCGAAUCGGUUUUUUUGGAGGAGGAAAGUAUUAUGUUACGCCGUUCGGAUCUGCACUUCCA,-0.144
UCAAGUCCUGUGCUACACAUCGUAUGUACCGAAUCGGAAAAAAAGGUGGAAAGGAAAGUAUUAUGUUACGCCGUUCGGAUCUGCACUUCC,-0.522
GUCCUGUGCUACACAUCGUAUGUACCGAAUCGGGGAAAGGGGAAAGGGGUUUUUGGGGAAAGUAUUAUGUUACGCCGUUCGGAUCUGCAC,0.232
ACCAUGCAGGUGGGCAUCUUUGGGAAGUGGGGCAAGGGGGGGAUAGGGAUGGGGGUAACACUUUGGGAACAGGUGGUCCCAGGUCGUUUC,0.645
CAAGUCCUGUGCUACACAUCGUAUGUACCGAAUCGGGGUUUGGUUUGGGUUUGGGGAAAGUAUUAUGUUACGCCGUUCGGAUCUGCACUU,0.177

# Sample 3 — technique: protein-binding microarray; molecule type: double-stranded DNA, one strand shown; matrix: in vitro; tested at: 940 nM top; notes: 60-bp whole probe; added: salmon DNA 0.4 mg/ml; reference: random background probes; direction: higher = stronger binding; all sequences stand within: GCCTAGCAC … GTCTTGATTCGCTTGACGCTGCTG
# Target: Interferon regulatory factor 5, full length, phosphomimetic (IRF5, Homo sapiens, UniProt Q13568-2, residues 1-514, S451D/S453D/S456D/S462D)
Oligonucleotide,fitted relative affinity [z-score]
GTGGTTCTGCTTCTTAGCGCGTGCTAG,0.327
CACGATATCAGACTGGAGACGTGCTAG,-0.049
GGCAGCCTCTGCATTCCCTCAGTGCTA,-0.11
GACGGTTCCGTTTTCCTGACGTGCTAG,1.71
GTAGATTCCAGTTTCGATTAGTGCTAG,8.78
GACGGTTTCGACTTTGGGGACGTGCTA,7.34
AACGATTTCGGGACTGGAGACGTGCTA,0.0644
TTAGATATCAGGACTGGATTAGTGCTA,-0.401
CACGGACTGCTTTTCCTGACGTGCTAG,0.0592
GACGAACTGAGTAGCGAGACGTGCTAG,-0.508
TGTTATTAAATTTTCACGGTGTGCTAG,0.0974
GACGGACTGCTTTTCCCGACGTGCTAG,0.0706
GACGGACTGGACACGGGGGACGTGCTA,-0.137
TCATCTATCTCTGTTTTACTGTGCTAG,1.47
TTAGCTTTCAGTATCGATTAGTGCTAG,6.39
TTAGGTTTCGACTATCGATTAGTGCTA,9.4
TTAGGATTCCTTTCCCTTTAGTGCTAG,0.173
TTAGAACTGGGGAGTGGATTAGTGCTA,0.0774
TTAGGTTTCCGTTTCCTTTAGTGCTAG,3.07

# Sample 4 — technique: protein-binding microarray; molecule type: hairpin DNA; matrix: in vitro; tested at: not given; reference: not given; direction: higher = stronger binding
# Target: Homeobox protein Hox-B13, full length (HOXB13, Homo sapiens, UniProt Q92826, residues 1-284)
# UniProt Q92826, sequence (whole entry, looked up): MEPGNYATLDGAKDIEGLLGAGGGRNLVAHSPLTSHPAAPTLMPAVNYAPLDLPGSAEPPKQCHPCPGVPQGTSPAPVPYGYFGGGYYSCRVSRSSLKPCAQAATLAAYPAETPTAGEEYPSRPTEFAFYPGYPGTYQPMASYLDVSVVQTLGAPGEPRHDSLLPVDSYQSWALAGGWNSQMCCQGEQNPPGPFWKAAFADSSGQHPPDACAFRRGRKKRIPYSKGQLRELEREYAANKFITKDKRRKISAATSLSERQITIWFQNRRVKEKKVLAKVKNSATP
# Notes: whole hairpin DNA, median over replicate spots
Oligonucleotide,median fluorescence [a.u.]
GAGGCCCTTTTATTGGGGCCTCCTGGCCCCAATAAAAGGGCCTCACACTC (5mC at 7),4760
GAGGCCGTCGTATTGGGGCCTCCTGGCCCCAATACGACGGCCTCACACTC (5mC at 9),3990
GAGGCCGTTTTCGGAGGGCCTCCTGGCCCTCCGAAAACGGCCTCACACTC (5mC at 12),4000
GAGGCCGTTTTATTGCGGCCTCCTGGCCGCAATAAAACGGCCTCACACTC (5mC at 16),4720
GAGGCCCGTTTACGAGGGCCTCCTGGCCCTCGTAAACGGGCCTCACACTC (5mC at 7 37),5120
GAGGCCGTATTACGAGGGCCTCCTGGCCCTCGTAATACGGCCTCACACTC,4470
GAGGCCGTTTTACGGGGGCCTCCTGGCCCCCGTAAAACGGCCTCACACTC (5mC at 13 31),5180
GAGGCCGTTTTATCGGGGCCTCCTGGCCCCGATAAAACGGCCTCACACTC (5mC at 14),4140
GAGGCCGCTTTATTGGGGCCTCCTGGCCCCAATAAAGCGGCCTCACACTC (5mC at 8),4810

# Sample 5 — target: CCND3, cyclin fold, Cln2 fusion (human); technique: yeast growth competition, sequencing; matrix: yeast; notes: weak parent motif; reference: not given; direction: higher = stronger binding
# Parent: GMNC docking peptide (human); KNAKRNLSSEFAN; partner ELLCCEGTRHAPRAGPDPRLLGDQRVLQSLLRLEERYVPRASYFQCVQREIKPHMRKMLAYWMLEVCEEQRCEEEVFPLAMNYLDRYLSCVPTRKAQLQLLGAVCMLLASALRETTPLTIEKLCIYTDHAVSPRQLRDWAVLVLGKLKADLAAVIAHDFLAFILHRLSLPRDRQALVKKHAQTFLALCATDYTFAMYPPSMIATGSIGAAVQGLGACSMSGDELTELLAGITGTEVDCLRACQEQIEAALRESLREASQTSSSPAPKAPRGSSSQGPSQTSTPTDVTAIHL
Change,normalised enrichment score
KNAKRELSSEFAN [N6E],0.669
KNAKRNVSSEFAN [L7V],-0.105
KNAKRNLSSECAN [F11C],-0.03
KQAKRNLSSEFAN [N2Q],0.377
KNAKRRLSSEFAN [N6R],0.0267
KNAKRNLWSEFAN [S8W],0.161
KRAKRNLSSEFAN [N2R],0.648
KNAKRNLLSEFAN [S8L],0.278
KNIKRNLSSEFAN [A3I],0.377
KNAARNLSSEFAN [K4A],0.281
KNAKRYLSSEFAN [N6Y],-0.37
KNGKRNLSSEFAN [A3G],0.31
KNAKRNLSSWFAN [E10W],0.437
KNAKRNLSSEIAN [F11I],-0.147
KNAKRNCSSEFAN [L7C],-0.227
KNAKRNLSYEFAN [S9Y],0.301
KNAKRNLNSEFAN [S8N],0.385
KNAKRNLSSEAAN [F11A],0.0788
KNYKRNLSSEFAN [A3Y],0.349
KNAKRNLSSEFYN [A12Y],0.234
KNAKRNLSSTFAN [E10T],0.437
KGAKRNLSSEFAN [N2G],0.0434
KNAKTNLSSEFAN [R5T],0.00192

# Some of these lines once more (sample 1):
Oligonucleotide,E-score
GTTCGGAA,0.0126
AGACCCTA,-0.173
ACTTTATG,-0.245
CAGTTCCA,-0.104
AGATGCTC,-0.0781
